Experimental data collected from several papers.
Numbered parts are unrelated; each lists some results of a single study. “And” joins repeats or separate records; there may be more than shown.
UniProt Q9UL54, sequence (whole entry, looked up): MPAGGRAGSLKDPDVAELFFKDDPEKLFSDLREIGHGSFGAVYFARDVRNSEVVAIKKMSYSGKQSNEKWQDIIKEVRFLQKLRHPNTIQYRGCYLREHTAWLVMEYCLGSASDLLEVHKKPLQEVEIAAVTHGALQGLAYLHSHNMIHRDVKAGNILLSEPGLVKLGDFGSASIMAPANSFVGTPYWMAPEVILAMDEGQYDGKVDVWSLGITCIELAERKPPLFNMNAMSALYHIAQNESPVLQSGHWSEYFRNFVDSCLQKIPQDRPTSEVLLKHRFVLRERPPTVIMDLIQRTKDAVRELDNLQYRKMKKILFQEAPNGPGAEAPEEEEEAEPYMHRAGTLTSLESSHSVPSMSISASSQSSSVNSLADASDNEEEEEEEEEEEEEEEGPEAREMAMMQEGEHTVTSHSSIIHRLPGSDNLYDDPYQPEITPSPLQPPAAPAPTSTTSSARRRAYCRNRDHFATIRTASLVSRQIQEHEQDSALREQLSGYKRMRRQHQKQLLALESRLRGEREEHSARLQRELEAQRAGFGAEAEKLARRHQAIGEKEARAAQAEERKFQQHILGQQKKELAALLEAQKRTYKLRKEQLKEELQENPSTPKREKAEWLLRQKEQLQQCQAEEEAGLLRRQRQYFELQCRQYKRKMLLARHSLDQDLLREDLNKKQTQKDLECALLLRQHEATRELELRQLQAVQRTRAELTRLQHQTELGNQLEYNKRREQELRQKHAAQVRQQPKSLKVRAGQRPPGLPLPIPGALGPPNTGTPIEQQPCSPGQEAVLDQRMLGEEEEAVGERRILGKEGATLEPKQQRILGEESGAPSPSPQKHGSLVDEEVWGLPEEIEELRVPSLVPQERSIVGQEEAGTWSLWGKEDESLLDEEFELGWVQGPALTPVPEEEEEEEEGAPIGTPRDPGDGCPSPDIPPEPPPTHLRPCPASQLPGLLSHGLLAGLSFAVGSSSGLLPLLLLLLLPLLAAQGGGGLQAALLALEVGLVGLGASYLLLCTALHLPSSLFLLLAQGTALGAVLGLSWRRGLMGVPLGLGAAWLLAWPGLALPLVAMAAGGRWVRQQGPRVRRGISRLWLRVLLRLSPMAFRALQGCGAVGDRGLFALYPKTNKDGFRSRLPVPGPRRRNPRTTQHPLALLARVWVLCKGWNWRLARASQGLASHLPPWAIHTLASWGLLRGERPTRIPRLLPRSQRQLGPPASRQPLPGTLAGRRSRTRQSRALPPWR
UniProt O43353, sequence (whole entry, looked up): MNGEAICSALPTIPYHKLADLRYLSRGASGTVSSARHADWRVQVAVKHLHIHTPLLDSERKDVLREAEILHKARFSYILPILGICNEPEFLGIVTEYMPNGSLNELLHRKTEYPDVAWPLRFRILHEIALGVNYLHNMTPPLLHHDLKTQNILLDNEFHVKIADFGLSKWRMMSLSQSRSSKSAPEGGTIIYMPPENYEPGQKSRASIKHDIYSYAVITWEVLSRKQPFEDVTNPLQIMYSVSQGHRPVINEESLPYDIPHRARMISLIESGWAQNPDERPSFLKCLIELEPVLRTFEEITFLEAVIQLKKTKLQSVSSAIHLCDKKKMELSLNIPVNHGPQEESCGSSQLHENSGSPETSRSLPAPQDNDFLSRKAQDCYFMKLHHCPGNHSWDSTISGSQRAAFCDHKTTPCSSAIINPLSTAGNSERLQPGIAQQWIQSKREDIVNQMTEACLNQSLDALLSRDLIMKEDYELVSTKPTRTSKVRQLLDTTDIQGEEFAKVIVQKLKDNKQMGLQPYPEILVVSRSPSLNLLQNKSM
UniProt Q99683, sequence (whole entry, looked up): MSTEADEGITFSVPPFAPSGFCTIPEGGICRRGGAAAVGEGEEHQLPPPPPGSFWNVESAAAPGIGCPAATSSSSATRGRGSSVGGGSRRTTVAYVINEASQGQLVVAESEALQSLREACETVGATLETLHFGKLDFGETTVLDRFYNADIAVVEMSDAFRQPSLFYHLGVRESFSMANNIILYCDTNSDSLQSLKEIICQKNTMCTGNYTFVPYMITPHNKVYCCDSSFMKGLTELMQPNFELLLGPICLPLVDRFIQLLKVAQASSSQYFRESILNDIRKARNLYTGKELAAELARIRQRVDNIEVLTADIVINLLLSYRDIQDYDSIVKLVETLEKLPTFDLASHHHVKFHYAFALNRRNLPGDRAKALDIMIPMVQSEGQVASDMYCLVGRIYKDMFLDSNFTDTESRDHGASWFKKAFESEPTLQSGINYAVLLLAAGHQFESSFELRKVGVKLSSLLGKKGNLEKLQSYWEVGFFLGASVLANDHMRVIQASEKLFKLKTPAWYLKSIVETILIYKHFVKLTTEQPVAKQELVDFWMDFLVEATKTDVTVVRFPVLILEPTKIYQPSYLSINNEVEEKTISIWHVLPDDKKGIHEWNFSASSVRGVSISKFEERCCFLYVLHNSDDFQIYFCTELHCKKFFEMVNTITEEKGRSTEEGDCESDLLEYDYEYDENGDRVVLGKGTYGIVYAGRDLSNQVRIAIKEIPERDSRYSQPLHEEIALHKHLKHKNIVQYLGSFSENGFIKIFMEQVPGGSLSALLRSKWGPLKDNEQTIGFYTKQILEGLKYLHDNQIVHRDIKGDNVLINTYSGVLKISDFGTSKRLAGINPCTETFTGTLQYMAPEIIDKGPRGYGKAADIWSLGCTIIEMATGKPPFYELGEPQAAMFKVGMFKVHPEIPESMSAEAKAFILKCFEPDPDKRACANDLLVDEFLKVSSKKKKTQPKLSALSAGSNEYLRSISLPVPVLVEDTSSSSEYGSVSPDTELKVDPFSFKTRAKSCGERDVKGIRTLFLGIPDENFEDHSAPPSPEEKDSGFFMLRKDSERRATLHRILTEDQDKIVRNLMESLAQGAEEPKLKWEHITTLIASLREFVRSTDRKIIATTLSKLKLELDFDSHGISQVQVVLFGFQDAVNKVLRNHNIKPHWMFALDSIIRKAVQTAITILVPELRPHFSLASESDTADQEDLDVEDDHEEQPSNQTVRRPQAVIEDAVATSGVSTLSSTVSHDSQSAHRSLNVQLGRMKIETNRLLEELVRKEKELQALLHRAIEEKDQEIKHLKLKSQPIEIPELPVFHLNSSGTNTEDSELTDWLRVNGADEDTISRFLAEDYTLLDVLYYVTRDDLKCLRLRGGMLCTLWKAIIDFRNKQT
UniProt Q9C098, sequence (whole entry, looked up): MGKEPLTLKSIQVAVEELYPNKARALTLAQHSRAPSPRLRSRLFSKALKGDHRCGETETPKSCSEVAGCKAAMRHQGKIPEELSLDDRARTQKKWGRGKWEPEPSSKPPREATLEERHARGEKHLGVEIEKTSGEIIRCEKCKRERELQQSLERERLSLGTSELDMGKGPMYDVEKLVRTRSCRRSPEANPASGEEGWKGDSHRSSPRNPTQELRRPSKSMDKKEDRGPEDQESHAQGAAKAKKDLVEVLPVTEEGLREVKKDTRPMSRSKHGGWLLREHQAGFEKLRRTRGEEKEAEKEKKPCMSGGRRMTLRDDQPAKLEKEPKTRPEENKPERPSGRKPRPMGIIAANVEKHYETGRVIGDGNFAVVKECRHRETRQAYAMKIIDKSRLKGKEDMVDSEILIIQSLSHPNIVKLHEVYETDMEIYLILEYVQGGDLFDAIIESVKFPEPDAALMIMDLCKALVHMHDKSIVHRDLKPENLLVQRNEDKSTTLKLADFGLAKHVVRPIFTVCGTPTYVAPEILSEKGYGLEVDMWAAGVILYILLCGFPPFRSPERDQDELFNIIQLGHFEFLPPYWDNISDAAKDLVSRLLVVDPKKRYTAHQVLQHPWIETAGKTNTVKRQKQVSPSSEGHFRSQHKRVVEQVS
UniProt Q6ZN16, sequence (whole entry, looked up): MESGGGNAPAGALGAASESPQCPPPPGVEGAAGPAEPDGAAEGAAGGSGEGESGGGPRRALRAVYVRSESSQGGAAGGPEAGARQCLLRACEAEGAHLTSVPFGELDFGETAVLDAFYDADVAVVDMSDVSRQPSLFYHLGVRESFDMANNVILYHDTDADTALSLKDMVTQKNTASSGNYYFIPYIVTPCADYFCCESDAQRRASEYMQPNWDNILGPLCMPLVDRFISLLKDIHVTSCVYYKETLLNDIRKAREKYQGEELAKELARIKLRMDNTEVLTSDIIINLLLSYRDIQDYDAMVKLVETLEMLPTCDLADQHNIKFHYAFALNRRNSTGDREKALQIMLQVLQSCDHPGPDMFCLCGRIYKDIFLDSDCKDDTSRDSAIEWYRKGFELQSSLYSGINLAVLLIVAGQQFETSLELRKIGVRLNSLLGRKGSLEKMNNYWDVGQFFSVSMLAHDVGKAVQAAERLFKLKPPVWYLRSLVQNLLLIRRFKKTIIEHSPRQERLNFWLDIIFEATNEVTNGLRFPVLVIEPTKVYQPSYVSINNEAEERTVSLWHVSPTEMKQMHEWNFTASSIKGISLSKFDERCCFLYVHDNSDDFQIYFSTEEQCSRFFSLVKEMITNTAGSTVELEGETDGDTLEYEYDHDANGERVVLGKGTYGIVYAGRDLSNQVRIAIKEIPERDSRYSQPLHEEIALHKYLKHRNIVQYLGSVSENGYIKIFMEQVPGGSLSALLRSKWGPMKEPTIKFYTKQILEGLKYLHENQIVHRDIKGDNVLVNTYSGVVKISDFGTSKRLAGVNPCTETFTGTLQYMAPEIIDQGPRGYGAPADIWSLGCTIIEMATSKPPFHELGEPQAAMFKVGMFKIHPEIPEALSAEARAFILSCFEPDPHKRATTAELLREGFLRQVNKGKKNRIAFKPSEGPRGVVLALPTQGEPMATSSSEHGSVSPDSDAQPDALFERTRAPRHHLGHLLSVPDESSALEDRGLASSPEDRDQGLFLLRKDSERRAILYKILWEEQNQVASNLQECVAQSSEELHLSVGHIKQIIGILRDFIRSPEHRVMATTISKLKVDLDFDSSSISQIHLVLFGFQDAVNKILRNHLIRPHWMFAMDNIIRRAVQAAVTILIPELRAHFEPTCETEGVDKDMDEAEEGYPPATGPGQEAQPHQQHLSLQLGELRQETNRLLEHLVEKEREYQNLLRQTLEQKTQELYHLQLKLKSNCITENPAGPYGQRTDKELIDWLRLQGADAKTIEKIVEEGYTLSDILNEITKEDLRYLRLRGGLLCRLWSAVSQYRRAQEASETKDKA

Set 1 — observed: cell-free assay; method: competition with immobilised ligand; tested at: 1 µM; quantity: remaining binding
Structure (SMILES): CS(=O)(=O)c1cc(C2(NC(=O)c3cncc4c3cnn4-c3ccc(F)cc3)CC2)ccn1
CHEK2 (Homo sapiens, UniProt O96017): 100%
CHEK1 (Homo sapiens, UniProt O14757): 100%
CDK11B (Homo sapiens, UniProt P21127): 81%
MAP3K15 (Homo sapiens, UniProt Q6ZN16): 67%
NEK10 (Homo sapiens, UniProt Q6ZWH5): 97%
MAP3K5 (Homo sapiens, UniProt Q99683): 97%
NEK11 (Homo sapiens, UniProt Q8NG66): 100%
CAMK2B (Homo sapiens, UniProt Q13554): 100%
RIPK2 (Homo sapiens, UniProt O43353): 53%
MAP3K2 (Homo sapiens, UniProt Q9Y2U5): 84%
PRKCI (Homo sapiens, UniProt P41743): 100%
WEE1 (Homo sapiens, UniProt P30291): 100%
MAP2K5 (Homo sapiens, UniProt Q13163): 80%
CSF1R (Homo sapiens, UniProt P07333): 79%
KDR (Homo sapiens, UniProt P35968): 77%
GAK (Homo sapiens, UniProt O14976): 85%
MAP3K12 (Homo sapiens, UniProt Q12852): 100%
MARK3 (Homo sapiens, UniProt P27448): 100%
PIP4K2C (Homo sapiens, UniProt Q8TBX8): 100%
DCLK3 (Homo sapiens, UniProt Q9C098): 100%
FLT4 (Homo sapiens, UniProt P35916): 100%
MAP3K10 (Homo sapiens, UniProt Q02779): 99%
CLK4 (Homo sapiens, UniProt Q9HAZ1): 100%
TAOK2 (Homo sapiens, UniProt Q9UL54): 97%
TLK2 (Homo sapiens, UniProt Q86UE8): 100%

Set 2 — cell line: A-375; tested at: 100 µM; time: 36 h; quantity: viability
Cc1ccc(Nc2nccc(N(C)c3ccc4c(C)n(C)nc4c3)n2)cc1S(N)(=O)=O: 45.2%
CC(C)(F)C[C@H](N[C@@H](c1ccc(-c2ccc(S(C)(=O)=O)cc2)cc1)C(F)(F)F)C(=O)NC1(C#N)CC1: 92.8%
CC(C)Oc1ccc2c(=O)c(-c3ccccc3)coc2c1: 75.5%
NCCCCCC(=O)O: 98.8%
COc1ccc2c(c1)c(CC(=O)OCC(=O)O)c(C)n2C(=O)c1ccc(Cl)cc1: 96.5%
Oc1ncnc2[nH]ncc12: 121%

Set 3 — action: inhibitor; quantity: inhibition
Structure (SMILES): Cc1nc(Nc2ncc(C(=O)Nc3c(C)cccc3Cl)s2)cc(N2CCN(CCO)CC2)n1
TNIK (Homo sapiens, UniProt Q9UKE5); 10 µM: 82%
ZAP70 (Homo sapiens, UniProt P43403); 1 µM: < 50%
TNNI3K (Homo sapiens, UniProt Q59H18); 10 µM: 100%

Set 4 — method: phase 2a trial; species: idiopathic pulmonary fibrosis patients; dose: all arms pooled; quantity: patients with bronchitis
SMILES: CC(C)n1cnc(-c2ccc(F)cc2)c1-c1ncc(C(=O)Nc2ccc(N3CCN(C)CC3)cc2)[nH]1
grade 3 emergent event: 0%
grade 4 emergent event: 0%
grade 1 emergent event: 0%

Set 5 — cell line: mouse MPNST tumor cells; method: high-content nuclear imaging; measured: cell number; tested at: 10 µM; time: 12 h; notes: mean of 2 replicates; baseline: plate mean; direction: higher = more cells; quantity: nuclei count
CC(C)(C)NC(=O)[C@H]1CC[C@H]2[C@@H]3CC[C@H]4NC(=O)C=C[C@]4(C)[C@H]3CC[C@]12C: -0.487 z-score
CCN(CC)CCCCNc1ncc2cc(-c3cc(OC)cc(OC)c3)c(NC(=O)NC(C)(C)C)nc2n1: -4.47 z-score
Cc1cc(-c2nncc3c(C(C)(C)C)c(OCc4ncnn4C)nn23)no1: 0.0418 z-score
CC(=O)Nc1ccc(C(=O)Nc2ccccc2N)cc1: 1.36 z-score
Cc1cc(C)c2c(N)c(C(=O)NCc3ccc(Cl)cc3)sc2n1: 1.93 z-score
CC(C)c1cc(C(C)C)c(CC(=O)NS(=O)(=O)Oc2c(C(C)C)cccc2C(C)C)c(C(C)C)c1: 2.1 z-score

Set 6 — species: mouse; medium: microsomes or S9; tested at: 2 µM; time: 0.5 h; quantity: remaining compound
Clc1ncccc1-c1nc2cc3c(cc2c2ccnn12)OCO3: < 1%
CN/C(=N/c1cc(C)nn1-c1ccccc1)c1ccc(F)cc1: 4.05%
Cc1ccc(-c2noc(CCC(=O)N(C)C)n2)c(=O)n1C(C)C: 0.179%
C=CCn1c(=O)n(Cc2cccnc2)c2nc(N)nc(Cl)c21: 28.5%
Cc1nn(C)c(C)c1S(=O)(=O)Nc1ccc(-n2nn[nH]c2=O)cc1: 73.7%
CNC1=C(c2cccc(C)n2)C(=O)C(c2ccc(Cl)cc2Cl)O1 (stereo not drawn): 0.23%

Mixed results
C[C@H]1CC[C@H](n2c3cnccc3c3cnc(Nc4ccc5c(n4)CCN(C(=O)CO)C5)nc32)CC1  receptor occupancy (ULK3 (Homo sapiens, UniProt Q6PHR2); 1 µM): -5.74%
CC(=O)N[C@@H](Cc1c[nH]c2ccccc12)C(=O)N[C@@H](CCC(=O)C=[N+]=[N-])C(=O)OC(C)C  quinolinate level (UPLC-MS/MS; EL4 tumor, C57BL/6 CES1-/- mice, tumor; subcutaneous, 0.3 mg/kg DON equivalent daily, 5 days; higher = more metabolite): 609000 a.u. and 850000 a.u. and 876000 a.u. and 790000 a.u. and 527000 a.u. and 661000 a.u.

Excerpt of the above (set 1):
PRKCI (Homo sapiens, UniProt P41743): 100%
FLT4 (Homo sapiens, UniProt P35916): 100%
MARK3 (Homo sapiens, UniProt P27448): 100%
PIP4K2C (Homo sapiens, UniProt Q8TBX8): 100%
CHEK1 (Homo sapiens, UniProt O14757): 100%
DCLK3 (Homo sapiens, UniProt Q9C098): 100%
MAP3K2 (Homo sapiens, UniProt Q9Y2U5): 84%
CDK11B (Homo sapiens, UniProt P21127): 81%
MAP2K5 (Homo sapiens, UniProt Q13163): 80%
